Assay results from different studies.
Compare with care: the assays were run in different laboratories. ± marks the error that the study gave.

Structure (SMILES)	target or system	test	test system	conditions	scale	measurement	result
C=C(C)[C@@H]1CC[C@]2(C(=O)NCCCCCCCCNC(=O)[C@H](CCC#N)NC(=O)OC(C)(C)C)CC[C@]3(C)[C@H](CC[C@@H]4[C@@]5(C)CC[C@H](OC(=O)CC(C)(C)C(=O)O)C(C)(C)[C@@H]5CC[C@]43C)[C@@H]12	Human immunodeficiency virus 1	viral replication, ELISA	MT4, NL43	96 h		IC50	≤ 50 nM
CC[C@H](C)[C@H](NC(=O)[C@H](CC(C)C)NC(=O)[C@H](Cc1c[nH]c2ccccc12)NC(=O)[C@H](CCC(N)=O)NC(=O)[C@@H](NC(=O)[C@H](Cc1ccccc1)NC(=O)[C@H](C)NC(=O)[C@H](CCCCNC(=O)COCCOCCNC(=O)COCCOCCNC(=O)CC[C@H](NC(=O)CCCCCCCCCCCCCCCCCCC(=O)O)C(=O)O)NC(=O)[C@H](CCC(N)=O)NC(=O)[C@H](C)NC(=O)[C@@H](NC(=O)[C@H](CCCCN)NC(=O)[C@H](CC(=O)O)NC(=O)[C@H](CC(C)C)NC(=O)C(C)(C)NC(=O)[C@@H](NC(=O)[C@H](CO)NC(=O)[C@H](Cc1ccc(O)cc1)NC(=O)[C@H](CC(=O)O)NC(=O)[C@H](CO)NC(=O)[C@@H](NC(=O)[C@H](Cc1ccccc1)NC(=O)[C@@H](NC(=O)CNC(=O)[C@H](CCC(=O)O)NC(=O)C(C)(C)NC(=O)[C@@H](N)Cc1ccc(O)cc1)[C@@H](C)O)[C@@H](C)O)[C@@H](C)CC)[C@@H](C)CC)C(C)C)C(=O)N[C@@H](C)C(=O)NCC(=O)NCC(=O)N1CCC[C@H]1C(=O)N[C@@H](CO)C(=O)N[C@@H](CO)C(=O)NCC(=O)N[C@@H](C)C(=O)N1CCC[C@H]1C(=O)N1CCC[C@H]1C(=O)N1CCC[C@H]1C(=O)N[C@@H](CO)C(N)=O			healthy subjects, single ascending dose	0.5 mg, postbaseline		treatment-emergent ADA positive subjects	0%
C[C@]1(CO)O[C@@H](n2cnc3c(N)nc(N)nc32)C[C@@H]1O	HIV-1 K65R	MTT	MT4			IC50	97.1 ± 75.6 nM
NCC(NC(=O)c1ccc(-c2ccc3c(c2)OCO3)[nH]1)c1ncc(CO)s1 (stereo not drawn)	human immunodeficiency virus 1	viral replication	PBMC	168 h		IC50	1900 ± 200 nM
CNC(=O)[C@@H](NC(=O)[C@H](CC(C)C)[C@H](O)C(=O)NO)C(C)(C)C	human fibrinogen	SDS-PAGE	Daboia russelii	concentration not given, unit not given, with: MH venom	relative to: untreated fibrinogen	remaining fibrinogen γ chain	0.436
Nc1ncnc2c([C@@H]3N[C@H](CO)[C@@H](O)[C@H]3O)c[nH]c12	Zaire ebolavirus	viral replication, inhibitor	human Macrophage	50 µM		inhibition	82.9%
N#CC(C#N)=NNc1ccc(OC(F)(F)F)cc1	Plasmodium yoelii	parasite growth	17XL			IC50	8600 nM
Cc1oc(-c2cccc(Cl)c2)nc1CN1CCCC(C(=O)NCCc2ccc(Cl)cc2)C1 (stereo not drawn)	SARS-CoV-2	cytopathic effect	USA_WA1/2020	round 1, 5-point		efficacy	49.9%
CC(C)(C)[C@H](NC(=O)C(F)(F)F)C(=O)N1C[C@H]2[C@@H]([C@H]1C(=O)N[C@H](C#N)C[C@@H]1CCNC1=O)C2(C)C			human, fasted	oral, 150 mg single dose, 28 days, no ritonavir		participants with serious adverse events	0%
N#C[C@]1(CO)O[C@@H](n2cnc3c(N)nc(N)nc32)C[C@@H]1O	HIV-1 M184V	MTT	MT4			IC50	4.4 ± 3.2 nM
COc1ccccc1C(=O)Nc1ccccc1Sc1ccc([N+](=O)[O-])cc1	HIV-1	viral replication, refers to: RT activity	H9 expressing A3G, LAI, X4-tropic wild type	day 7		IC50	5500 nM
CC[C@H](C)[C@H](NC(=O)[C@H](C)NC(=O)CNC(=O)[C@H](Cc1ccccc1)NC(=O)[C@@H](NC(=O)[C@H](CCC(N)=O)NC(=O)[C@H](Cc1c[nH]cn1)NC(=O)[C@H](CC(C)C)NC(=O)[C@H](C)NC(=O)[C@H](CCCCN)NC(=O)CNC(=O)[C@@H](NC(=O)[C@H](CO)NC(=O)[C@@H](NC(=O)[C@H](Cc1ccccc1)NC(=O)[C@@H](NC(=O)CNC(=O)CNC(=O)[C@H](CC(C)C)NC(=O)[C@H](CO)NC(=O)CNC(=O)[C@H](Cc1ccccc1)NC(=O)[C@H](CC(=O)O)NC(=O)[C@H](Cc1c[nH]c2ccccc12)NC(=O)[C@H](C)NC(=O)[C@@H](NC(=O)[C@H](CC(=O)O)NC(=O)CNC(=O)[C@H](CC(C)C)NC(=O)[C@@H](NC(=O)[C@H](C)NC(=O)[C@@H](N)CCSC)[C@@H](C)CC)[C@@H](C)O)C(C)C)[C@@H](C)O)[C@@H](C)CC)C(C)C)C(=O)N[C@@H](Cc1ccc(O)cc1)C(=O)O	dengue virus	viral replication, plaque reduction	LLC-MK2, New Guinea-2			IC50	~10000 nM
CNCC(NC(=O)c1ccc(-c2ccc3c(c2)OCO3)[nH]1)c1nc(CO)cs1 (stereo not drawn)	human immunodeficiency virus 1	viral replication	PBMC	168 h		IC50	2800 ± 400 nM
COc1ccccc1C(=O)Nc1ccccc1OCc1ccc([N+](=O)[O-])cc1	HIV-1	viral replication, refers to: RT activity	H9 expressing A3G, LAI, X4-tropic wild type	day 7		IC50	34000 nM
C#C[C@]1(CO)O[C@@H](n2ccc(N)nc2=O)C[C@@H]1O	HIV-1 K65R	MTT	MT4			IC50	10.2 ± 4 nM
CC1(C)CC(NC(=O)C(=O)Nc2ccc(Cl)cc2)CC(C)(C)N1	HIV-1	viral entry	TZM-bl, panel of 56 Env pseudoviruses			IC50	1900 to 27800 nM
O=C(Nc1ccccc1CO)c1ccccc1Sc1ccc([N+](=O)[O-])cc1	HIV-1	viral replication, refers to: RT activity	H9 expressing A3G, LAI, X4-tropic wild type	day 7		IC50	112000 nM
Cn1cnc(Cn2c(=O)[nH]/c(=N\c3cc4cn(C)nc4cc3Cl)n(Cc3cc(F)c(F)cc3F)c2=O)n1			human, severe renal impairment	oral, 375 mg		treatment-related TEAE, Mild severity	0%

A few entries again:
Structure (SMILES)	target or system	test	test system	conditions	scale	measurement	result
Cn1cnc(Cn2c(=O)[nH]/c(=N\c3cc4cn(C)nc4cc3Cl)n(Cc3cc(F)c(F)cc3F)c2=O)n1			human, severe renal impairment	oral, 375 mg		treatment-related TEAE, Mild severity	0%
